Measured values of several laboratories.
Every numbered part comes from another study and shows a few of its results, in no order.

Block 1 — cell line: yeast with cyclin F-Cln2 chimera; effect on: cell growth; mode: binder; method: competitive growth deep sequencing; form: peptide; tested at: concentration not given; notes: peptide tiling library; reading: direction not given
For `IQKKLRFEDTLEFVGF`, “growth enrichment score” read 2.73.
`RSLKLDGLLEEN`: “growth enrichment score” 3.34.
`KPHVSDEEEEEPPFYH`: “growth enrichment score” 0.354.
`QYQVVDDIVSKLVFDF`: “growth enrichment score” 0.0305.
`LRRKLFLDGNGSIS` — result for “growth enrichment score”: 3.3.
`EPKTLFLGAGDFQF`: “growth enrichment score” 0.768.
For `GLPDFVFQQQPVESEA`, “growth enrichment score” read 0.0472.
For `CFRCLLFSFSGRSGVE`, “growth enrichment score” read 1.85.
`ARKRLELGNLGNPQ`: “growth enrichment score” 1.97.
For `RDLFDCDFGDLTPLDF`, “growth enrichment score” read 0.0619.
For `AKRSLGFLPQPVPL`, “growth enrichment score” read 2.05.
Under “growth enrichment score”, `ALLRRLQDVANDRGSH` is recorded as 0.426.
`DVSERGYVILPNDYFE` — result for “growth enrichment score”: -0.17.
`ESSTVSEEDYFSSHRD`: “growth enrichment score” -0.0159.
`KPKPVKPVTFSTGIKM` — result for “growth enrichment score”: 0.0889.
`VEEEFFALRKRTPSAG` — result for “growth enrichment score”: 0.444.
For `DKYDEGLYRFNSLNDL`, “growth enrichment score” read -0.404.
For `EAAPPTQEAQGETEPT`, “growth enrichment score” read 0.588.

Block 2 — method: RNA Bind-n-Seq; form: RNA; sample: in vitro; tested at: not given; notes: RNA with constant flanks, ends assumed; relative to: input RNA pool; reading: higher = stronger binding
Target: RING finger protein unkempt homolog, zinc fingers 1-6, GST-SBP tag (UNK, Homo sapiens, UniProt Q9C0B0, residues 30-357)
Constant ends, left off below: GGGAGUUCUACAGUCCGACGAUC … CAACAGAGGAUUGAGCAUCA
Construct (chain): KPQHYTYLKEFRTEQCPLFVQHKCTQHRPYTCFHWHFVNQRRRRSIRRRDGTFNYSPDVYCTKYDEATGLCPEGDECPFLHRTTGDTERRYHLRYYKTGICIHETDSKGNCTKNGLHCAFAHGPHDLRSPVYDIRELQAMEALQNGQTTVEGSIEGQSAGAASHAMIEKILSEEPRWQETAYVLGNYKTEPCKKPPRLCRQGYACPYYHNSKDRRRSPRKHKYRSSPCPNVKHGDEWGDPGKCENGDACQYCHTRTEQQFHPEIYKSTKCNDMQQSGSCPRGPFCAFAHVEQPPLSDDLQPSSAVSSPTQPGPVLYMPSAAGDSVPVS
`UUUUUCCUGCCCAAAGGAGCCUACAUUUAUAAUACACUAAUGGAAUUUAUCAGGAGUGAAUACCGGAAAAGAGGGUUCCAGGAGGUCGUCACUCCCAACAUCUUCAAUAGCCGGCUCUGG` gave a bound/input enrichment of 0.414 ratio.
`UGCCGGCCCGGAGGAGGCCCGGCCAUGGGUGGAAACCUCAAAGCUCGGGGGGCCGGCGGCCGCAGCAGUUGCGGGGGCCCAAAGGGGAAGAAGAAGAACGGAAGGAACAGAGGAGGUAAA` gave a bound/input enrichment of 0.121 ratio.
`UUAUGGGGGAAGGGGGGGGUUCUUUAAAAUUUCUGUGGUUUGUGGCUUUUUCUUCCAUACAUCCGUUCCCACCAUCGCAUGCCCAGGGACCACUGCCUGGCAUUAUCGCAUGCUGGGAUC` gave a bound/input enrichment of 0.491 ratio.
`UGAAAAUAAUCGUCACCCAGAAAAUCCAGAAAACUGAAGAUUUCAUCAGUUGGAAACAGCCGCACUUUGAAAACUUUUUAGGCCAGCUUUAAUUUAAUGGCCCUACUGAUAUUCACAUCG` has a bound/input enrichment of 0.239 ratio.
`CUCAAUGGCUUGGAACCAGAAAAUAUCCACAUGAUGAUUGGGUCUAUGACAAUCGACUGCUCCGGAAUUCUAAAUGAUCUCUCCGACUGUGAAGAUAAGCUCUUUCCUAUUGGAUAUCAG` has a bound/input enrichment of 0.271 ratio.
The bound/input enrichment of `CACCCUACUCUGGGUGCCAGUGUGCUUCAUAUCACUGAAAACGGGCCAACUGAAGUGGACUACCGUCCCUCUGAUAUCCAGGACUCUAGUUUGUCGCAUAAGAUCCCGCCAACGGAAGAG` is reported as 0.202 ratio.
`ACUUCCGGGAGGGGGCUUGGGUCCCUGGUGUGUGUGCUACGGGGUGCAGACUGUGUUUAAAACCGCAGGAACGCCAUGUCCCGGGGUUCCAGCGCCGGUUUUGACCGUCACAUUACUAUC` gave a bound/input enrichment of 0.0925 ratio.
With `GAAACAUUUAAAUUUAAAGAAGCUGUUGUUUUAGGGAGCACGGACUUCCUAGAAGAUGAUACCGAAAAAAUUGUAGAAGAACUGGGAAAAGAAUACAAAGGCAAUGCUUAUCAUUUAAUG` the bound/input enrichment was 0.688 ratio.
`AGUAUUAAAAAAAUCAUACAUGUGCUGGAGAAGGUCCAGUAUCUUGAACAAGAAGCCGAAGAAUUUGCCGGAAAAAAGACAGACAAAGCAUACUGGCUUCUGGAAGAAAUGCUAACCAAG` has a bound/input enrichment of 0.2 ratio.
`GUUACAGGCCCUGGUGGAGUUCCAGUUCAAGGCAGUAAAUACGCAGCAGACCGUAACCAUUACCGACGCUAUCCACGUCGUAGGGGUCCUCCACGCAAUUACCAGCAAAAUUACCAGAAU` gave a bound/input enrichment of 0.145 ratio.
For `CCUGUACCCGCACCCCUGCCCAUGUGUACUGUAUGUGCCCCCAAAUGGAUGAGAGAUGGAAACCGAAAGAGGGGGCCCGAGCCCAGCCCCCAGCUCAGCCCGAAGCACUUAACCAGUCCC`, the bound/input enrichment was 0.472 ratio.

Block 3 — method: protein-binding microarray; form: double-stranded DNA, one strand shown; sample: in vitro; tested at: 0.8 µM; notes: whole 60-bp probe, no competitor; reading: higher = stronger binding; constant ends, left off below: … GTCTTGATTCGCTTGACGCTGCTG
Target: Centromere-binding protein 1, full length, N-terminal tag (CBF1, Saccharomyces cerevisiae, UniProt P17106, residues 1-351)
Chain of UniProt P17106 (whole entry, looked up): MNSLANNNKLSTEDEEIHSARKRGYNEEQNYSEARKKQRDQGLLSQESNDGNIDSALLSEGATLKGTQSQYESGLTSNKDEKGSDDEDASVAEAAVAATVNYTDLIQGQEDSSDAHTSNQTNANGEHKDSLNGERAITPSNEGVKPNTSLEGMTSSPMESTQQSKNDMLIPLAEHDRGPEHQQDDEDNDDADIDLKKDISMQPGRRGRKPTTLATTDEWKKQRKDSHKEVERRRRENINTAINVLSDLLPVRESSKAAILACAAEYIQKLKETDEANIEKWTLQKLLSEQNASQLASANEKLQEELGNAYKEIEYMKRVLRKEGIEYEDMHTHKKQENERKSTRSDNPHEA
`GAACATCCGGTCAATCATCAGGGTAATACATATTAG` has a fluorescence intensity of 504 a.u.
`CTATGGCTCAGTAATCACGAATAAAAGTAGGTGTTC` gave a fluorescence intensity of 571 a.u.
The fluorescence intensity of `CTAGCTCCTATACATGATGCAACAGTAATCTACTTC` is reported as 570 a.u.
`CCTAACTACTATAATCTGATGGTATAGCTTCGTACA` gave a fluorescence intensity of 497 a.u.
For `CCTAACTACTATATGCACGTGCAATAGCTTCGTACA`, the fluorescence intensity was 11000 a.u.
With `CTAACTGACTGGACTTGGGTCACAATTTGAATTTTC` the fluorescence intensity was 582 a.u.
`GAATCATGTGATTTCCATGTGCGGCAACTTCAATAG` has a fluorescence intensity of 4700 a.u.
`CCTAACTACTATACGCACGTATCATAGCTTCGTACA` has a fluorescence intensity of 516 a.u.
The fluorescence intensity of `GAAGCGCAAGCTCGCCATCACTGTAAATGAAATTAG` is reported as 499 a.u.
With `CTAACTATCTTACACGTGTTTGTAACATAAACGTTC` the fluorescence intensity was 6550 a.u.
The fluorescence intensity of `GAAGTGTTGCGATGTCTCCTGACCTCACTATTTTAG` is reported as 826 a.u.
`GAAATCCCCATTGGACACGTTCATGTCATTCATTAG` gave a fluorescence intensity of 522 a.u.
For `GAATCATCATTGGTGGTGGTGACACTGCCACTGTAG`, the fluorescence intensity was 527 a.u.
`CTAGATGCCACAAGTACTCAGGTGTCCTATGAATTC` has a fluorescence intensity of 562 a.u.
`GAACTGGAAGGGCATCACCCGTCAAAACACTAATAG` gave a fluorescence intensity of 476 a.u.
`GAAAAACATTTTGATGTCACAATGAAAGAACTCTAG` gave a fluorescence intensity of 527 a.u.
With `GAAACTTTCGGAAATCACGCAAATATTATGCACTAG` the fluorescence intensity was 548 a.u.
For `GAACGAGAAAATGCTCATCTGATTAGAAATGCGTAG`, the fluorescence intensity was 783 a.u.
With `CCTAACTACTATACTTTCGTGGGATAGCTTCGTACA` the fluorescence intensity was 497 a.u.
`TGTACGAAGCTATTATACGTGCCTATAGTAGTTAGG` has a fluorescence intensity of 501 a.u.
With `CTACGCAACGAAGGGGAGGTGACCGTGCTTGAATTC` the fluorescence intensity was 532 a.u.
`CTATAAAGAAGAAAACATCAGCCTCACAATTACTTC` gave a fluorescence intensity of 498 a.u.
`GAATGTCCAACCCATCTGGTGGTTGGGGTGTCCTAG` gave a fluorescence intensity of 475 a.u.
The fluorescence intensity of `CTAAAATATTTATGTCACGTAGCGAGCTTACTTTTC` is reported as 835 a.u.
For `CTAGAACGAGCAATCAATGTGATCAATTTGCCATTC`, the fluorescence intensity was 572 a.u.

Block 4 — method: RNA Bind-n-Seq; form: RNA; sample: in vitro; tested at: 365 nM; relative to: no-protein control; reading: higher = stronger binding
Target: RNA binding protein fox-1 homolog 2, RRM domain, GST-SBP tag (RBFOX2, Homo sapiens, UniProt O43251-10, residues 100-194)
Notes: natural RNA segment, single round, ends assumed
Constant ends, left off below: GGGAGUUCUACAGUCCGACGAUC … UGGAAUUCUCGGGUGCCAA
Target sequence (chain): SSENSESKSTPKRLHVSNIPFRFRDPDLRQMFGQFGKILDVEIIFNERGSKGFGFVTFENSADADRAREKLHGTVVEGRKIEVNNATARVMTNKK
Under “RBNS enrichment (R)”, `AAGGAGCAUUGAGUUCUUUGGUUUUGUUUUGUUUUGUUUUUUUUUAAUCUCAACUAAAGAUAUAGUUCUGUGGUAGCCAUUGUUUUACAAUGAAAUAACUGCAACUAGAG` is recorded as 0.34.
`UGCUCUUUAUUCCAGACAAGGCAGGAAAGUCUGAGUUGGGAGUGACAGUGGCUGGAGAGAAGCAGAUCUGUGCAACGUGCAGGGCAAGCCAGUGGCGUGGCCUCUGCCUC`: “RBNS enrichment (R)” 0.632.
Under “RBNS enrichment (R)”, `AUGUGUGUGAGUAUGUGUGUAAAGACUAUGUGGCCAAAAUACCAUCUGGCCAGACGGGCCCACCCACUGACUGUCUGGUCUCAUUCUUUUCAAUCAAGAGGGCUGUGUUG` is recorded as 0.31.
`UGUGGAGUGGAAUGAAAUCAAUGCUGCCUGGGGCCAGACAGUGCUGCUGCUCCAUGCUUUGGCCAAUAAGAUGGGUCUGAAGUUUCAGAGGUACCGACUUGUUCCCUAUG` — result for “RBNS enrichment (R)”: 0.593.
For `ACUUCUGCCUAUGGCUUACAGUUUGACAUUUAAUUUAUUAGCGCUGCUCUGCACCCCUCCCUUGGGAGGGAGACUUCAUGUGGUUUAUUGCGAGUUUUUUGUUUACUUUU`, “RBNS enrichment (R)” read 0.455.
`UUCAAUGGAUUCCAUUCCUGUAUUCCUUAUGGGAGGUUGUUUUUAAAAUAGACUACUGCGAUUGAAAUGAACUCAAUAUGUAGUUAAGUUAUAGUUUUCUUCAAUGUAUU`: “RBNS enrichment (R)” 0.471.
`UAUUUUUUUAUUCUAUGUGCACACAUACAGUAUACAUAUAUAUUUAUAUCACAUUUUACUGAACCAAAAAGUUGGGUUUCCAAUAAAAUACUUGUUUUUUAAUAACCGAC`: “RBNS enrichment (R)” 0.462.
`UCCACUUCCUAGAAGUUUAUCCAGUGAACUAGACACUAAGCCAAGCACAUGUCCAGGAGGGUUGCUGUCGCACUAGCACCUAGGUAACACCAACUAGAUUAUUAUCAGGU`: “RBNS enrichment (R)” 0.497.
`AGUUUGGAGAAAUGAUGAGCUACGCCUUGAUGAAAGAACCGUGUUGGUGCUGCUAAGUUUAGCCAUUAUGGUUUUUCCUUUCUCUCUCUUAAGCCUUAUUCUUCAACUAA` — result for “RBNS enrichment (R)”: 0.33.

Repeated from above (block 2):
`UGAAAAUAAUCGUCACCCAGAAAAUCCAGAAAACUGAAGAUUUCAUCAGUUGGAAACAGCCGCACUUUGAAAACUUUUUAGGCCAGCUUUAAUUUAAUGGCCCUACUGAUAUUCACAUCG` has a bound/input enrichment of 0.239 ratio.
`UGCCGGCCCGGAGGAGGCCCGGCCAUGGGUGGAAACCUCAAAGCUCGGGGGGCCGGCGGCCGCAGCAGUUGCGGGGGCCCAAAGGGGAAGAAGAAGAACGGAAGGAACAGAGGAGGUAAA` gave a bound/input enrichment of 0.121 ratio.
`UUAUGGGGGAAGGGGGGGGUUCUUUAAAAUUUCUGUGGUUUGUGGCUUUUUCUUCCAUACAUCCGUUCCCACCAUCGCAUGCCCAGGGACCACUGCCUGGCAUUAUCGCAUGCUGGGAUC` gave a bound/input enrichment of 0.491 ratio.
`CUCAAUGGCUUGGAACCAGAAAAUAUCCACAUGAUGAUUGGGUCUAUGACAAUCGACUGCUCCGGAAUUCUAAAUGAUCUCUCCGACUGUGAAGAUAAGCUCUUUCCUAUUGGAUAUCAG` has a bound/input enrichment of 0.271 ratio.
The bound/input enrichment of `CACCCUACUCUGGGUGCCAGUGUGCUUCAUAUCACUGAAAACGGGCCAACUGAAGUGGACUACCGUCCCUCUGAUAUCCAGGACUCUAGUUUGUCGCAUAAGAUCCCGCCAACGGAAGAG` is reported as 0.202 ratio.
With `GAAACAUUUAAAUUUAAAGAAGCUGUUGUUUUAGGGAGCACGGACUUCCUAGAAGAUGAUACCGAAAAAAUUGUAGAAGAACUGGGAAAAGAAUACAAAGGCAAUGCUUAUCAUUUAAUG` the bound/input enrichment was 0.688 ratio.
